Experimental data pooled from the literature.
Cell line: SK-MEL-28

SMILES | assay | conditions | scale | endpoint | result
CCn1cc(-c2cc(Cn3ccoc3=N)cc3c2CCN([C@@H](C)c2cc(OC)ccn2)C3=O)c(C(F)(F)F)n1 | cell growth, inhibitor | 120 h |  | EC50 | 0.496 µM
C#C[C@@]1(O)[C@@H](CO)O[C@@H](n2cc(F)c3c(N)ncnc32)[C@@H]1O | SRB | NCI-60 screen |  | TGI | > 100 µM
CCOC(=O)CSc1nc(-c2ccc(Cl)cc2)c2c(NC(=O)c3ccccc3)nnc-2[nH]1 | SRB | 10 µM, NCI60 single-dose screen | reference: untreated | cell growth | 102%
O=C(/C=C/C=C/C=C/C1CCCCC1)NC1=C[C@@](O)(/C=C/C=C/C=C/C(=O)NC2=C(O)CCC2=O)[C@@H]2O[C@@H]2C1=O | cell growth, CellTiter-Glo | 78 h |  | GI50 | 20.7 µM
CCOc1ccc(-c2nc3cc(-c4nc5cc(N6CCN(C)CC6)ccc5[nH]4)ccc3[nH]2)cc1OCC | SRB | 10 µM, 48 h |  | growth percent | -27.2%
[Cl-].[Cl-].[Ru+2].c1cnc2c(c1)ccc1cccnc12.c1cnc2c(c1)ccc1cccnc12.c1csc(-c2ccc(-c3ccc(-c4ccc(-c5nc6c7cccnc7c7ncccc7c6[nH]5)s4)s3)s2)c1 | resazurin viability | dark, hypoxia 1% O2 |  | EC50 | < 100 µM
CCCN1CCN(c2ccc3[nH]c(-c4ccc5[nH]c(-c6ccc(C(F)(F)F)cc6)nc5c4)nc3c2)CC1 | SRB | 10 µM, 48 h |  | growth percent | -94.6%
O=C(Nc1nnc2n3c(=S)[nH][nH]c3nc(-c3ccc(Cl)cc3)c1-2)c1ccccc1 | SRB | 10 µM, NCI60 single-dose screen | reference: untreated | cell growth | 117%
O=C1NC(c2ccccc2)(c2ccccc2)C(=O)N1Cc1cn(-c2c3ccccc3nc3ccccc23)nn1 | NCI60 single-dose screen | 10 µM |  | growth percentage | 104%
CCCN1CCN(c2ccc3[nH]c(-c4ccc5[nH]c(-c6ccc(OCC)c(OCC)c6)nc5c4)nc3c2)CC1 | SRB | 10 µM, 48 h |  | growth percent | -86.6%
O=C(Nc1nnc2n3c(nc(-c4ccc(Cl)cc4)c1-2)SCC3=O)c1ccccc1 | SRB | 10 µM, NCI60 single-dose screen | reference: untreated | cell growth | 110%
O=c1ccn(Cc2cn(-c3c4ccccc4nc4ccccc34)nn2)c(=O)[nH]1 | NCI60 single-dose screen | 10 µM |  | growth percentage | 102%
[Cl-].[Cl-].[Ru+2].c1cnc2c(c1)ccc1cccnc12.c1cnc2c(c1)ccc1cccnc12.c1csc(-c2ccc(-c3ccc(-c4nc5c6cccnc6c6ncccc6c5[nH]4)s3)s2)c1 |  | normoxia, together with: green light 523 nm, 100 J/cm2 |  | phototherapeutic index | 270

A few entries again:
SMILES | assay | conditions | scale | endpoint | result
O=C(Nc1nnc2n3c(nc(-c4ccc(Cl)cc4)c1-2)SCC3=O)c1ccccc1 | SRB | 10 µM, NCI60 single-dose screen | reference: untreated | cell growth | 110%
